Experimental data gathered from unrelated publications.
Every numbered part comes from another study and shows a few of its results, in no order.

Study 1 — technique: RNA Bind-n-Seq; molecule type: RNA; medium: in vitro; tested at: 365 nM; baseline: no-protein control; reading: higher = stronger binding
Target: RNA binding protein fox-1 homolog 2, RRM domain, GST-SBP tag (RBFOX2, Homo sapiens, UniProt O43251-10, residues 100-194)
Setting: natural RNA segment, single round, ends assumed
All sequences stand within: GGGAGUUCUACAGUCCGACGAUC … UGGAAUUCUCGGGUGCCAA
Residues (chain): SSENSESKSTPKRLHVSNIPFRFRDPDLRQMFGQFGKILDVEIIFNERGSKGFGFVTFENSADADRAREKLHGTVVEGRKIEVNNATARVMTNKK
| Oligonucleotide | RBNS enrichment (R) |
| --- | --- |
| CACAGCACCAAACCCAGCUAAGUACAGCGUCUAAACAUUUCUUAAAGCAUAUGAUAUUGGUUUUAAUAUAUUUACCAAAAGUACUAUUGCUUGGAUAUAAAAUCACUGAG | 0.413 |
| GGAACUCGGGCUUCUGCCCAUUGCCCUCUGAAGCUGCUUCCCAUCUGAUGUCACUGGGAGACAGCAGCUGUCUGUGGGGUAUUGGGGUGCAGGUAGAUUAGAGCUGUGAA | 1.36 |
| CCACUGUGGUCAAAGCACGAAUUGGAAGUUCUCAGAGACAACACCAGUCAGCAGCCAAAGACCUAACUCAGUCACCUGAAAUGUCACCAACAACAAUCCAGGUCACAUAC | 0.326 |
| AACCGUGUUAGCAGCUCAGGAAGAUGCCGUGAAGCAUUCUUAUUAAACCACCUGCUAUUUCAUUCAAACUGUGUUUCUUUUUUAUUUCCUCAUUUUUCUCCCCUGCUCCU | 0.702 |
| GGGAGCUCUGCUCUGAGCUUGCCACACUGCUGAGAGCACCCACUGUCCUGACCAGAGUCUCAGUGGUCCUGACCCCCAAUGUGGGCAGGGGCUGGGCAGGAGGGUGGGGU | 2.45 |
| AGAUUUGGGGCCACAUUGUUUACAAACUAUACACACCAGGUUAAUAGACACCCCGUCUUAAGCACCAGCUCCUCUUGGGUGCCCCCAGAGCCCCUGCAACUGUUAUCCAC | 0.643 |
| UUUUUAAAAGAAUGUCUGCCCUCACACACUUUUAUGGAUUUGUUUUUCUUACAUACCCAUCUUUUAACUUAGAGAUAGCAUUUUUUGCCCUCUUUAUUUUGUUGUUUGUU | 0.398 |
| UGUGUCAAGAAAAGAGCAGUCACUCUCAGAAUCUUGAUUCCCCAUCAGCCAAAGCAAAAGAUGGCUGCUGCUUUGUAGGCAUGUGCCUGCAAGUGGGACCUUGCUGGGCA | 0.354 |

Study 2 — technique: RNA Bind-n-Seq; molecule type: RNA; medium: in vitro; tested at: 20 nM; setting: 6-mer, flanks averaged, single round; with: 150 mM KCl; baseline: input library; reading: higher = stronger binding
Target: TAR DNA-binding protein 43, full length, His tag (TARDBP, Homo sapiens, UniProt Q13148, residues 1-414)
| Oligonucleotide | 6-mer enrichment (R) |
| --- | --- |
| UGCGCC | 0.819 |
| AAUGCG | 1.01 |
| GGGAAG | 4.9 |
| AUGGGG | 4.06 |
| CUCUCC | 0.574 |
| UUUAUA | 0.638 |
| CGGCCG | 1.39 |
| UCGCUC | 0.559 |
| CCUACG | 0.681 |
| AGUACU | 0.593 |
| GCCUAG | 0.915 |
| UUACUU | 0.587 |
| UUCGAU | 0.549 |
| AGUCAG | 0.849 |
| UGUCGA | 0.786 |
| GUGACC | 0.855 |

Study 3 — technique: protein binding microarray; molecule type: double-stranded DNA, one strand shown; medium: in vitro; tested at: not given; baseline: not given; reading: higher = stronger binding
Target: Histone acetyltransferase KAT6A, winged helix 2, GST fusion (KAT6A, Homo sapiens, UniProt Q92794, residues 85-181)
Setting: 8-mer, flanks averaged, mean of 2 arrays, mostly near background
Target sequence (chain): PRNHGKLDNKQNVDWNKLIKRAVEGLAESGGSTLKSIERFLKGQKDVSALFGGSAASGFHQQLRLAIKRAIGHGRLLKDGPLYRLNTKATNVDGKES
| Oligonucleotide | E-score |
| --- | --- |
| TGTAGAAA | -0.035 |
| CAAGAACC | 0.115 |
| ATCACCAG | 0.0037 |
| ATAAGCCA | -0.114 |
| CTACTAGA | -0.0868 |
| ATTACGCA | -0.0325 |
| ATCCTCCG | -0.16 |
| TAAAGTGA | -0.0684 |
| CCAATACC | -0.174 |
| CCCGATCA | 0.00304 |
| GTCAGTCA | -0.196 |
| CCCACCGG | 0.196 |
| CCGATAGG | 0.109 |
| AGGTAACA | -0.0935 |
| GGTTAGTA | -0.00418 |
| CCACACGA | -0.067 |
| ATGCATCA | 0.0788 |

Study 4 — technique: RNA Bind-n-Seq; molecule type: RNA; medium: in vitro; tested at: 200 nM; setting: whole 134-nt RNA, ends assumed; with: 150 mM LiCl; baseline: input library; reading: higher = stronger binding; each molecule: 7-deaza-guanosine replaces G
Target: Fragile X messenger ribonucleoprotein 1, C-terminal low-complexity region (Fmr1, Mus musculus, UniProt P35922)
All sequences stand within: GGGAGUUCUACAGUCCGACGAUC … UGGAAUUCUCGGGUGUCAAGG
| Oligonucleotide | log2 enrichment |
| --- | --- |
| GCAGGAAGUAAAAACAAAUGGAAAUGCUUCGGAUAGUAGCAGGGGUGGGGGUUGCUAAGGAAAGGGUGGGAUGGGAGUGGGUAAAGAGUU | 1.21 |
| CAAGUCCUGUGCUACACAUCGUAUGUACCGAAUCGGUUUGGAAAGGUUUUUUUGGAAAGUAUUAUGUUACGCCGUUCGGAUCUGCACUUC | -1.63 |
| GCAGGAAGUAAAAACAAAUGGACAUGCUUCGGAUAGUGGCAGGGGUGGGGGUUGCUAAGGAAAGGGUGGGAUGGGAGUGGGUAAAGAGUU | 1.71 |
| UCAAGUCCUGUGCUACACAUCGUAUGUACCGAAUCGGCCCCGGCCCCGGCCCCGGAAAGUAUUAUGUUACGCCGUUCGGAUCUGCACUUC | -0.095 |
| UCCUGUGCUACACAUCGUAUGUACCGAAUCGGGGUGGGGAAAAAGGGGUUUUUUUGGGGAAAGUAUUAUGUUACGCCGUUCGGAUCUGCA | -0.674 |
| UGUGCUACACAUCGUAUGUACCGAAUCGGGGCCCCCCCGGGGCCCCCCCGGGCCCCCCCGGGAAAGUAUUAUGUUACGCCGUUCGGAUCU | -1.84 |
| AGUCCUGUGCUACACAUCGUAUGUACCGAAUCAAAUUUAAACCCAAACCCCCCCAAAAAAGUAUUAUGUUACGCCGUUCGGAUCUGCACU | 1.14 |
| UUUCUAGCUGGACCAGUCCGGUACGCUCCGGGCCUCACCGAGGAAGUCCCACCCUGCAGGGGAACCGACUCUGGCCGGCCCUAACCCCUC | 0.701 |

Some of these lines once more (study 1):
| Oligonucleotide | RBNS enrichment (R) |
| --- | --- |
| GGAACUCGGGCUUCUGCCCAUUGCCCUCUGAAGCUGCUUCCCAUCUGAUGUCACUGGGAGACAGCAGCUGUCUGUGGGGUAUUGGGGUGCAGGUAGAUUAGAGCUGUGAA | 1.36 |
| CCACUGUGGUCAAAGCACGAAUUGGAAGUUCUCAGAGACAACACCAGUCAGCAGCCAAAGACCUAACUCAGUCACCUGAAAUGUCACCAACAACAAUCCAGGUCACAUAC | 0.326 |
| AACCGUGUUAGCAGCUCAGGAAGAUGCCGUGAAGCAUUCUUAUUAAACCACCUGCUAUUUCAUUCAAACUGUGUUUCUUUUUUAUUUCCUCAUUUUUCUCCCCUGCUCCU | 0.702 |
| GGGAGCUCUGCUCUGAGCUUGCCACACUGCUGAGAGCACCCACUGUCCUGACCAGAGUCUCAGUGGUCCUGACCCCCAAUGUGGGCAGGGGCUGGGCAGGAGGGUGGGGU | 2.45 |
| AGAUUUGGGGCCACAUUGUUUACAAACUAUACACACCAGGUUAAUAGACACCCCGUCUUAAGCACCAGCUCCUCUUGGGUGCCCCCAGAGCCCCUGCAACUGUUAUCCAC | 0.643 |
